Measurements from different studies.
“And” joins repeats or separate records; there may be more than shown. ± gives the spread as reported.

`Cc1cccc(CNC(=O)c2cn(CCNC(=O)c3ccccc3S)c3cc4c(cc3c2=O)OC(F)(F)O4)n1` has an AUC(0-t) of 102 ± 7.16 ng·h/mL (Sprague-Dawley rat, male, plasma; intravenous, 5 mg/kg of parent drug).
The AUC(0-t) of `C=CC(=O)N1CCC([C@@H]2CCNc3c(C(N)=O)c(-c4ccc(Oc5ccccc5)cc4)nn32)CC1` is reported as 2880 ± 581 ng·h/mL (Sprague-Dawley rats, plasma; oral, 16 mg/kg, added: posaconazole 40 mg/kg).
The AUC(0-t) of `COc1cccc(-c2n[nH]c(SCc3ccccn3)n2)c1OC` is reported as 2790 ng·h/mL (Sprague-Dawley rats, male, plasma; intravenous, 1.0 mg/kg, single dose).
`O=C1c2ccncc2C(=O)c2c1[nH]c1ccccc21` has an AUC(0-t) of 1.29 ± 0.702 µM·h (Sprague-Dawley rat female, plasma; intravenous, 1 mg/kg).
`CC(C)c1nc(N(C)S(C)(=O)=O)nc(-c2ccc(F)cc2)c1/C=C/[C@@H](O)C[C@@H](O)CC(=O)O` gave an AUC(0-t) of 10100 ng·h/mL (rat, Wistar albino, plasma; oral, 20 mg/kg).
`C1=C/COCc2cc(ccc2OCCN2CCCC2)Nc2nccc(n2)-c2cccc(c2)COC/1` has an AUC(0-t) of 10800 ± 8160 ng·h/mL (LC-MS/MS; Sprague-Dawley rat, male, plasma; oral, 36 mg/kg, added: isavuconazole 20 mg/kg oral).
For `CCc1c(-c2ccccc2)c(-c2ccccc2)nn1-c1ccccc1-c1cccc(OCC(=O)O)c1`, the AUC(0-t) was 5820 ng·h/mL and 4940 ng·h/mL (Sprague-Dawley rat; oral, dose not given).
`C=CC(=O)N1CCC(Oc2cc3c(Nc4ccc(Cl)c(Cl)c4F)ncnc3cc2OC)CC1` gave an AUC(0-t) of 6780 ± 895 ng·h/mL (male Sprague-Dawley rats, plasma; oral, 2 mg/kg, added: schisandrin A pretreatment 20 mg/kg daily 1 week).
For `Cc1cccc(CNC(=O)c2cn(CCNC(=O)c3ccccc3Sc3c([N+](=O)[O-])ncn3C)c3cc4c(cc3c2=O)OC(F)(F)O4)n1`, the AUC(0-t) was 472 ± 222 ng·h/mL (Sprague-Dawley rat, male, plasma; intramuscular, 30 mg/kg of parent compound).
With `CCc1c2c(nc3ccc(OC(=O)N4CCC(N5CCCCC5)CC4)cc13)-c1cc3c(c(=O)n1C2)COC(=O)[C@]3(O)CC` the AUC(0-t) was 4.11 ± 1.21 µM·h (Sprague-Dawley rats, plasma; iv, 10 mg/kg).
`CSc1ccccc1C(=O)NCCn1cc(C(=O)NCc2cccc(C)n2)c(=O)c2cc3c(cc21)OC(F)(F)O3` has an AUC(0-t) of 98.4 ± 33.2 ng·h/mL (Sprague-Dawley rat, male, whole blood; intramuscular, 30 mg/kg of parent compound).
`CN1CCC[C@H](CN2c3ccccc3Sc3ccccc32)C1.Cl` gave an AUC(0-t) of 4090 ng·h/mL (Wistar rat female, plasma; oral, 16 mg/kg).

A few entries again:
The AUC(0-t) of `C=CC(=O)N1CCC([C@@H]2CCNc3c(C(N)=O)c(-c4ccc(Oc5ccccc5)cc4)nn32)CC1` is reported as 2880 ± 581 ng·h/mL (Sprague-Dawley rats, plasma; oral, 16 mg/kg, added: posaconazole 40 mg/kg).
